Measured values of several laboratories.
Every numbered part comes from another study and shows a few of its results, in no order.

Block 1
Organism: Saccharomyces cerevisiae
Observed: peptide binding
Technique: yeast competitive growth sequencing
Molecule type: peptide
Strain: cyclin F-Cln2 fusion
Concentration: concentration not given
Notes: RxL motif peptides
Direction: direction not given
Endpoint: binding score
SNARRSLNFGGST: 7.59
PPARRRLRLSVDE: 8.25
PPHRRRLLFACSP: 7.52
PPVKRRLDLETDH: 6.83

Block 2
Target: Interferon regulatory factor 3, full length, phosphomimetic (IRF3, Homo sapiens, UniProt Q14653, residues 1-427, S386D/S396D/S398D/S402D/T404D/S405D)
Technique: protein-binding microarray
Molecule type: double-stranded DNA, one strand shown
Sample: in vitro
Concentration: 2540 nM top
Notes: 60-bp whole probe
Together with: salmon DNA 0.4 mg/ml
Baseline: random background probes
Direction: higher = stronger binding
Endpoint: fitted relative affinity
All sequences stand within: GCCTAGCAC … GTCTTGATTCGCTTGACGCTGCTG
Construct (chain): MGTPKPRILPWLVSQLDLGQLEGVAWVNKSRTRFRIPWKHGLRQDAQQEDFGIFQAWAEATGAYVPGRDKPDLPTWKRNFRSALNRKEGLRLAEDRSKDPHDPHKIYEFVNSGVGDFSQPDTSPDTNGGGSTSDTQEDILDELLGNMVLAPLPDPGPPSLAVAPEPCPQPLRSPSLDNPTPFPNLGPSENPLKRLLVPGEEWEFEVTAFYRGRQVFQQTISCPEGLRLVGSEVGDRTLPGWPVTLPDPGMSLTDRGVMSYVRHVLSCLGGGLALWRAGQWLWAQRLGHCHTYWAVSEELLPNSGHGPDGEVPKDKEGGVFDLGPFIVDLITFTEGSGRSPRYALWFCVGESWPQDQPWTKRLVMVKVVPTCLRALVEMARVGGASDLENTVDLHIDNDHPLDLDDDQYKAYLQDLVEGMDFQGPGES
TTAGGTATGGGGTATCGGTTAGTGCTA: -0.00592 z-score
GACGGACTGCTTTTCCTCACGTGCTAG: 0.0923 z-score
TCAACCATCTAGTTCTGACTGTGCTAG: 0.611 z-score
AGTGTTACCCCTCATCAACCAGTGCTA: 0.551 z-score
CAGAGCCTCAGGCCTCACACAGTGCTA: -0.75 z-score
TTAGGTTCCGGGTTTCGGTTAGTGCTA: 3.75 z-score
GTTGCTCTCCGGGGTCTGTGAGTGCTA: -0.184 z-score
GACGGAGTGGACTTTCGGGACGTGCTA: 0.172 z-score
GACGATTTCAGTTCCGAGGCGTGCTAG: 2.73 z-score
GTCTCTGTTCTTTTCAGTCCGTGCTAG: 2.54 z-score
TCAATTTTTTTTTTCATACTGTGCTAG: 0.906 z-score
TGGAGAGTAGCTTTCTGAGGGTGCTAG: -0.684 z-score
TCACTTTCCACTTGTCTTTTCGTGCTA: 4.6 z-score
GACGGTTTCGGTATCCGGACGTGCTAG: 8.43 z-score
GACGGATTCCTTCTCCTGACGTGCTAG: 5.24 z-score
GACGGTTTCGGGTTTCGGGCCGTGCTA: 5.44 z-score
GCCGGTTTCGACTATCGGGACGTGCTA: 3.3 z-score
ATAGAACTGGGGACTGGATTAGTGCTA: -0.722 z-score
GTCGATCTCAGTTTCGAGACGTGCTAG: 3.52 z-score
GACGATTTCAGTATCGAGCCGTGCTAG: 2.01 z-score
CCAGGGCTCTAGAGAAATAGGTGCTAG: -0.844 z-score

Block 3
Target: Sal-like protein 4, full length isoform A (SALL4, Homo sapiens, UniProt Q9UJQ4, residues 1-1053)
UniProt Q9UJQ4, sequence (whole entry, looked up): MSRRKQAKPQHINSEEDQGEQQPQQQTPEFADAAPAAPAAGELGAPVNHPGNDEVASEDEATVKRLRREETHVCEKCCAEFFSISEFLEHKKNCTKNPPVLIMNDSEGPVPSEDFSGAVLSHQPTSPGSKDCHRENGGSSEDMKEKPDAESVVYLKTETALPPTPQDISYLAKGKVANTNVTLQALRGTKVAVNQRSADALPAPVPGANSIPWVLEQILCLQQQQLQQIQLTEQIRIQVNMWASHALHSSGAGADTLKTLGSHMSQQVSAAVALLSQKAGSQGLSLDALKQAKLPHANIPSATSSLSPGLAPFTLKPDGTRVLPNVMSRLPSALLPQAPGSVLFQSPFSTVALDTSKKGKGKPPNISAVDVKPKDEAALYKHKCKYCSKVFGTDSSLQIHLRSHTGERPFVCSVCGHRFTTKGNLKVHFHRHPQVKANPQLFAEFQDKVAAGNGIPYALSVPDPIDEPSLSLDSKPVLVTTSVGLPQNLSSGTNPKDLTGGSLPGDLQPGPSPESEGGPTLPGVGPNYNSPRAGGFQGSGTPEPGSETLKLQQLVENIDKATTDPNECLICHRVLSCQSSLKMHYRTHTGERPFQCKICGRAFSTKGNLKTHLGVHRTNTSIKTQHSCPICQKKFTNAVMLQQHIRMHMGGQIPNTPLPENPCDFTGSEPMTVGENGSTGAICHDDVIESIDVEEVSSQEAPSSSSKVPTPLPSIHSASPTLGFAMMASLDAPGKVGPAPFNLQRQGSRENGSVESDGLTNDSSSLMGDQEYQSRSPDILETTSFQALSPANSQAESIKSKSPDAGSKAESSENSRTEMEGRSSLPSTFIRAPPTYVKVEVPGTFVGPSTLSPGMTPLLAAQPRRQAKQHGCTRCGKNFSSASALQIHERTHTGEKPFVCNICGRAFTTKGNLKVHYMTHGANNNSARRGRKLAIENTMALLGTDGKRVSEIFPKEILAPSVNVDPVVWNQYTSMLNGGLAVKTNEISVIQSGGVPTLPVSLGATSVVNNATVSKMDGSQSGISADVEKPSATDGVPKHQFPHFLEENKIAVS
Technique: universal PBM
Molecule type: double-stranded DNA, one strand shown
Sample: in vitro
Concentration: 600 nM
Notes: 8-mer, flanks averaged, mean of replicates
Direction: higher = stronger binding
Endpoint: E-score
CCGGCGCA: -0.283
ATCACATG: 0.137
AGATAATG: 0.289
CCCCCACG: -0.255
CTGAGCGA: -0.155
GCGATTCA: -0.11
AAGTCTTG: -0.0427
GGGGTGGA: -0.263
AGGGTTGC: -0.168
CCAACACA: 0.122
CTCCGATC: -0.254
CGGCTCTA: -0.116
ATAAGGCC: -0.086
CGCTGTAA: 0.0944
AGTGATAC: 0.0851
ATTGCAAT: 0.162
ATCTGAAG: 0.0966

Block 4
Target: Histone acetyltransferase KAT6A, winged helix 1, GST fusion (KAT6A, Homo sapiens, UniProt Q92794, residues 1-85)
Technique: protein binding microarray
Molecule type: double-stranded DNA, one strand shown
Sample: in vitro
Concentration: not given
Notes: 8-mer, flanks averaged, mean of 2 arrays, mostly near background
Baseline: not given
Direction: higher = stronger binding
Endpoint: E-score
Residues (chain): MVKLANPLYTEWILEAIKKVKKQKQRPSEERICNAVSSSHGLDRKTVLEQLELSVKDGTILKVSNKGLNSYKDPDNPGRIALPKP
ATAGTATG: -0.127
AGTCCTAG: -0.235
GGGCCTAA: -0.0233
ATGCGCAA: 0.24
AAGACTGT: -0.0358
CCTGATGA: -0.143
CCCGGGTA: 0.224
AGATAAGA: -0.186
AAGGGACG: 0.0201
CACGCGTG: 0.283
CATAATGA: -0.183
GGACCTGA: 0.139
TGGTCCAA: 0.0492
CAAATTTC: -0.302
ATTAGTAA: -0.0869
CGCCATCA: 0.0786
CGCCGCCG: 0.479

Block 5
Target: Ras GTPase-activating protein-binding protein 1, C-terminal RGG region (G3BP1, Homo sapiens, UniProt Q13283)
UniProt Q13283, sequence (whole entry, looked up): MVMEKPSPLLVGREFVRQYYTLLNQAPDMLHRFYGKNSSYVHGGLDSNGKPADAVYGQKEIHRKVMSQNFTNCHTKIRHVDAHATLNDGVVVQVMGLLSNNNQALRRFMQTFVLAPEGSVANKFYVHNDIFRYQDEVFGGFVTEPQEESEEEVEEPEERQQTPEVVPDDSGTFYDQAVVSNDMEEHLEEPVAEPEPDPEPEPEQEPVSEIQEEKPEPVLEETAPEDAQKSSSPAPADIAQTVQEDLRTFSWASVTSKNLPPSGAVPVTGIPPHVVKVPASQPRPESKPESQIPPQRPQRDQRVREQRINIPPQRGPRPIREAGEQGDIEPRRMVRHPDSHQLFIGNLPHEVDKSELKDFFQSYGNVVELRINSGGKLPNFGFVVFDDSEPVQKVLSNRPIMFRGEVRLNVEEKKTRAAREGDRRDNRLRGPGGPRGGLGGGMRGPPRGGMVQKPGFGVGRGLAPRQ
Technique: RNA Bind-n-Seq
Molecule type: RNA
Sample: in vitro
Concentration: 1 µM
Notes: whole 134-nt RNA, ends assumed
Together with: 150 mM KCl
Baseline: input library
Direction: higher = stronger binding
Endpoint: log2 enrichment
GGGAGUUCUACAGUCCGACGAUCGGCAGGAGGAAGAGCGCAGGCGCCGUGAAGAAGAGAUGCGGCGGCAGCAAGAAGAAAUGAUGCGGCGACAGCAGGAAGGAUUCAAGGGAAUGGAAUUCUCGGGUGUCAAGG: -0.436
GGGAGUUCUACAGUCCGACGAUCGUCCUGUGCUACACAUCGUAUGUACCGAAUCGGAAAAAGGAAAAAAAGGUUUUUUUGGAAAGUAUUAUGUUACGCCGUUCGGAUCUGCACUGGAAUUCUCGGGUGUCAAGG: -1.88
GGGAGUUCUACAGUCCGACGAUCUAACUUUAGAGGAGGAUCUGAUGGAUAUGGCAGUGGACGUGGAUUUGGGGAUGGCUAUAAUGGGUCUGGAGGAGGACCUGGAGGUGGCAAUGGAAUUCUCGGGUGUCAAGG: -0.921
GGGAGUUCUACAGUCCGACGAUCAAAAUAAGCCUAAGAAAGAAUUAAUUAAAGUUCUGAUUCAGAGGGGAUAUGAUUCGGAUCCUGUGAAGGCCUGGAAAGAAGCCCAGCAAAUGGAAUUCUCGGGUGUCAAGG: -1.46
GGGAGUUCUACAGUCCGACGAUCACCAUGCAGGUGGGCAUCUUUGGGAAGUGGGGCAAGGGGGGGAUAGGGAGGGGGGUAACACUUUGGGAACAGGUGGCCCCAGGUCGUUUCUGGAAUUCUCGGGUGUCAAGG: 1.46
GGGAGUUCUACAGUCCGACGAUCGUCCUGUGCUACACAUCGUAUGUACCGAAUCGGGUUUGGGAAAAAAAGGGUUUUUGGGAAAGUAUUAUGUUACGCCGUUCGGAUCUGCACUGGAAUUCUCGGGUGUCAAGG: 0.243
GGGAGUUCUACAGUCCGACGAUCUCUCCCAUCAAAGGACGUGCACAGCCUUAUGAUCCCAAUUUUUACGAUGAAACCUAUGAUUAUGGUGGUUUUACAAUGAUGUUUGAUGACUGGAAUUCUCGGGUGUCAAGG: 0.302
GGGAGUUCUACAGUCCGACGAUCUUACACCAAUGAGAAGCUGCAGCAGCUCUUCAACCACACCAUGUUCAUCCUGGAGCAGGAGGAGUACCAGCGCGAGGGCAUCGAGUGGAAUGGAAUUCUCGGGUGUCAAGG: -1.05
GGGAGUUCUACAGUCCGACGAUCUCCUCAAGUCCUGUGCUACACAUCGUAUGUACCGAAUCGGGGUGGGUGGUGGAAAGUAUUAUGUUACGCCGUUCGGAUCUGCACUUCCAGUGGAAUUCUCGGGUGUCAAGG: 0.313
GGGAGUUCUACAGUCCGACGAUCUGGGAGGUGGAUUUUGUUUAUUUUUUUAGCUCAUUUCCAGGGGUGGGAAUUUUUUUUUAAUAUGUGUCAUGAAUAAAGUUGUUUUUAAAAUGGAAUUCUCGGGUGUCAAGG: 2.17

Block 6
Target: Myc proto-oncogene protein, bHLH-zipper, MAX partner unstated (MYC, Homo sapiens, UniProt P01106, residues 368-449)
UniProt P01106, sequence (368-449, looked up): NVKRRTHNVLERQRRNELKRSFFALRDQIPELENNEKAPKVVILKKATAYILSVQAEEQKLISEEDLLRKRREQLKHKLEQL
Technique: protein-binding microarray
Molecule type: double-stranded DNA, one strand shown
Sample: in vitro
Concentration: not given
Notes: k-mer, scored over probes, only values ≥0.25
Direction: higher = stronger binding
Endpoint: E-score
AATCGTGG: 0.259
CCACAAGG: 0.281
CCCCGCGC: 0.265
CAACACAC: 0.26
GCCACCCA: 0.252
GCCGCACA: 0.282
CATGACCC: 0.304
ACTCCACG: 0.333
CTACCCAC: 0.297
ATGCGACA: 0.278
GTGGACCA: 0.293
GCACGCCC: 0.274
CACGTTCC: 0.353
CATGCTGG: 0.401
GAACACGC: 0.397

Block 7
Target: PABPC1L2, full length, GST fusion (mouse, UniProt A0ABA7IW68)
Technique: RNAcompete
Molecule type: RNA
Sample: in vitro
Concentration: 20 nM
Notes: 7-mer, probes averaged, single round
Baseline: mean of 7-mers
Direction: higher = stronger binding
Endpoint: 7-mer Z-score
Target sequence (chain): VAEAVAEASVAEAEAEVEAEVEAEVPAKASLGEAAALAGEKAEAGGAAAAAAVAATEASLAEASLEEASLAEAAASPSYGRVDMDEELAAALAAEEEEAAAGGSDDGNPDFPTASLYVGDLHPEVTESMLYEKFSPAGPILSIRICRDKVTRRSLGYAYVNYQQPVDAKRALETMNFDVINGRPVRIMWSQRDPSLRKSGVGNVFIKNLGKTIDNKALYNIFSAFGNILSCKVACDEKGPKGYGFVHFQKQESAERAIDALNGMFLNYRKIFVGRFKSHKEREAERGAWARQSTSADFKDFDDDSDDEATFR
CACGAAU: -0.155
CCUUUAA: 0.153
CAGUAAG: -0.0844
CAGCCAU: -0.141
GCACAGC: -0.121
GGUUCUG: -0.186
UGUGAUG: -0.286
GUAACAG: 0.126
AGCCAGG: 0.0189
UCACGAU: -0.108
UCAGGGU: -0.0808
CUACUUG: -0.248
CUUCAUC: -0.315
UGAGGAA: 0.148
AGGGCGU: 0.267
GAUCAAC: -0.186
AUAUAGG: -0.05
GGUCCCU: -0.208

Block 8
Target: UBE2Q2 UBC core domain (UniProt Q8WVN8)
UniProt Q8WVN8, sequence (whole entry, looked up): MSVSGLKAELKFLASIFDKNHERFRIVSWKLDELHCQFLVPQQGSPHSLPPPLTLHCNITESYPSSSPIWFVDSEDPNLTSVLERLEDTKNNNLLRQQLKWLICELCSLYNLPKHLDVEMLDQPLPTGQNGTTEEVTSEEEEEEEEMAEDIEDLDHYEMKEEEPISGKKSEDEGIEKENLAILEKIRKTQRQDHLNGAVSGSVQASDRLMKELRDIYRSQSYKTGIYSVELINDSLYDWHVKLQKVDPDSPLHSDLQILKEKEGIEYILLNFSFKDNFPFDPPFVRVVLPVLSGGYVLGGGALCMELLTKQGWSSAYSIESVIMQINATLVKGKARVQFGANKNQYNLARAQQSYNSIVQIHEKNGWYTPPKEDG
Technique: yeast two-hybrid
Sample: yeast
Notes: mostly zero background
Baseline: not given
Direction: higher = stronger interaction
Endpoint: lacZ reporter activity
B1: RMND5B RING domain (UniProt Q96G75); chain MKCWYHSVFACPILRQQTSDSNPPIKLICGHVISRDALNKLINGGKLKCPYCPMEQNPADGK
B2: RNF10 RING domain (UniProt Q8N5U6); chain VRICSHEVPSCPICLYPPTAAKITRCGHIFCWACILHYLSLSEKTWSKCPICYSSVHKKDLKS
B3: RNF32 RING domain (UniProt Q9H0A6); chain VQALRRETHECSICLAPLSAAGGQRVGAGRRSREMALLSCSHVFHHACLLALEEFSVGDRPPFHACPLCRSCYQKKILEC
B4: MARCHF2 RING domain (UniProt Q9P0N8); chain RLLSTVIRALDTPSDGPFCRICHEGANGECLLSPCGCTGTLGAVHKSCLEKWLSSSNTSYCELCHTEFAVEKRPRPLTEWL
B5: TRIM74 RING domain (UniProt Q86UV6); chain SLLELEDWLQCPICLEVFKESLMLQCGHSYCKGCLVSLSYHLDTKVRCPMCWQVVDGSSSLP
B6: RNF115 RING domain (UniProt Q9Y4L5); chain TQEQVDMGLECPVCKEDYTVEEEVRQLPCNHFFHSSCIVPWLELHDTCPVCRKSLNGEDSTR
B7: SHPRH RING domain (UniProt Q149N8); chain KTSGGVNPEPCPICARQLGKQWAVLTCGHCFCNECISIIIEQYSVGSHRSSIKCAICRQTTSHKEISY
B8: TRIM32 RING domain (UniProt Q13049); chain NLDALREVLECPICMESFTEEQLRPKLLHCGHTICRQCLEKLLASSINGVRCPFCSKITRITSLTQ
B9: RNF130 RING domain (UniProt Q86XS8); chain DKETDPDFDHCAVCIESYKQNDVVRILPCKHVFHKSCVDPWLSEHCTCPMCKLNILKALGIV
B1 (RMND5B RING domain): 0
AAQLLEEKLTCAICLGLYQDPVTLPCGHNFCGACIRDWWDRCGKACPECREPFPDGAELR (TRIM65 RING domain (UniProt Q6PJ69)): 0
B2 (RNF10 RING domain): 0
B3 (RNF32 RING domain): 0
B4 (MARCHF2 RING domain): 0
B5 (TRIM74 RING domain): 0
B6 (RNF115 RING domain): 0
B7 (SHPRH RING domain): 0
B8 (TRIM32 RING domain): 0
B9 (RNF130 RING domain): 0
EDVLSKDAGECAICLEELQQGDTIARLPCLCIYHKGCIDEWFEVNRSCPEHPSD (ZNRF2 RING domain (UniProt Q8NHG8)): 0
